Results gathered from unrelated publications.
Parts stem from different laboratories: compare values within a part only.

Block 1
Target: RNA binding protein fox-1 homolog 2, RRM domain, GST-SBP tag (RBFOX2, Homo sapiens, UniProt O43251-10, residues 100-194)
Method: RNA Bind-n-Seq
Form: RNA
Medium: in vitro
Tested at: 365 nM
Setting: natural RNA segment, single round, ends assumed
Reference: no-protein control
Reading: higher = stronger binding
Shared flanks, not repeated: GGGAGUUCUACAGUCCGACGAUC … UGGAAUUCUCGGGUGCCAA
`UGUAACCACUGCUUCAGUCACCUCCCACCUCUUGCCACCUGCUGCUGCUAUCUGUCCUUACUUGUGGGCUUCUCCAUGCUGUGCCAAUGGCUGGCUUUUUCUACACCCUC` — result for “RBNS enrichment (R)”: 0.451.
Under “RBNS enrichment (R)”, `CUUAGAAAAGGAGAAAGGAAUUCCUUUUCCCGCCCGAACAUGAAGAAAAAUGACCUGACCCUGUAGAGAGAACACAGUGUGAAUGUUUCCCCUCGUGUGAGCCCAGCCUG` is recorded as 0.926.
For `ACCUAGCAUGUUUUGUGGACGCAGUCAAGCUGCCACAGUCUGGUCAUCGUUGUUGUUGUGCUGACGUCUGGUCAUGUAUUAUUAGUGUGUCUCGUUCUCCACGGUGCUGG`, “RBNS enrichment (R)” read 23.
`CUUUUUUUAACAAUGAGCAUGAAGGUAGCAGAAGCUGGUGUGUUUCCAGAUGGUUCUUCUAACCAAACUAAUUUUUCACUGUUGACAAGCGAGGCAAGGGUUGCACUGGA` — result for “RBNS enrichment (R)”: 1.8.
`GUAAUGCCUCUGUUAACUUUGCCAGGAGCUUUGAGAGUCUGCCCUCUCCCACCCUUCCUGAACCAUGACCACCACCAGCUCUAGGGUCGUAAUGUUGGAGAUCAGGAAUA` — result for “RBNS enrichment (R)”: 0.511.
`GCAGGUGGGAUGAGGGAGACAGACCACUUUUCUAUAUUGCAGUGUGAAUGCUGGGCCCCUGCUCAAGUCUACCCUGAUCACCUCAGGGCAUAAAGCAUGUUUCAUUCUCU`: “RBNS enrichment (R)” 1.74.
For `UAAACACUUUCUGGAACCCGAGACUUGGCCAUAAAGAUAAUGCUGCAUUUUUCUGUCAGAAUCACAUAUGAUGUGUGUUCUGUAGAGGUUAUUUCUGCAUGGAAACUCAA`, “RBNS enrichment (R)” read 0.418.
Under “RBNS enrichment (R)”, `CCAUAGGCUGCGUGAGUGUGAGUGUGUAUGGAAGUGUGUGCGCAAGUGUGUGCGCAUGCAUGAGUGCGCACACAAGUUUGAGUGUAUGAAUUCUUGUGCCCACACAUGCU` is recorded as 7.83.

Block 2
Target: Replicase polyprotein 1ab, polymerase (rep, Severe acute respiratory syndrome coronavirus 2, UniProt P0DTD1)
Read-out: enzyme activity
Action: inhibitor
Tested at: 20 µM
The inhibition of `CC(C)c1ccc(NC(=O)c2cccs2)c(-c2nc3ccccc3[nH]c2=O)c1` is reported as -12.5%.
The inhibition of `CC(C)Oc1ccc(-c2nc(-c3cccc4c3CC[C@@H]4NCCO)no2)cc1C#N` is reported as -10.3%.
`CNC(=O)[C@H](Cc1c[nH]c2ccccc12)NC(=O)[C@@H](CC(=O)NO)CC(C)C` has an inhibition of -7.68%.
`c1cc(CN2CCCCC2)cc(OCCCNc2nc3ccccc3s2)c1` gave an inhibition of -0.43%.
The inhibition of `C[C@H](N)C(=O)O` is reported as -1.44%.
The inhibition of `COc1ccc(Cl)c(Nc2ncnc3cc(OCC4CCN(C)CC4)c(OC)cc23)c1` is reported as 1.25%.
The inhibition of `CCn1cc(C(=O)O)c(=O)c2cnc(N3CCCC3)nc21` is reported as 9.89%.
The inhibition of `CC(C)(N)CC12CC3CC(CC(C3)C1)C2` is reported as -2.48%.
`CSc1cc2c(cc1C(F)(F)F)N(C(=O)Nc1cccnc1)CC2` gave an inhibition of -4.4%.
`COc1ccc(O)cc1` has an inhibition of -2.76%.
`CCCCN(CC)c1nc(C)nc2c1c(C)c(C)n2-c1c(C)cc(C)cc1C` gave an inhibition of 3.98%.
For `CN1CCCCC1CCN1c2ccccc2Sc2ccc([S+](C)[O-])cc21` (stereo not shown), the inhibition was 0.42%.
`COC(=O)Nc1ccc(-c2nc(N3CCOCC3)c3cnn(C4CCN(Cc5cccnc5)CC4)c3n2)cc1` gave an inhibition of 3.72%.
For `CN=c1nc(-c2ccccc2)n(-c2ccccc2)s1`, the inhibition was 0.48%.
With `c1ccc2sc(SNC3CCCCC3)nc2c1` the inhibition was 1.69%.
`C=C1/C(=C\C=C2/CCC[C@]3(C)[C@@H]([C@H](C)/C=C/C=C/C(O)(CC)CC)CC[C@@H]23)C[C@@H](O)C[C@@H]1O` has an inhibition of 4.73%.
For `CC(C)[C@H](N)C(=O)OCCOCn1cnc2c(=O)nc(N)[nH]c21`, the inhibition was -1.97%.
`CCOC(=O)[C@H]1O[C@@H]1C(=O)N[C@@H](CC(C)C)C(=O)NCCC(C)C` has an inhibition of 11.1%.
`COc1cccc([C@@]2(O)CCCC[C@@H]2CN(C)C)c1` gave an inhibition of -2.47%.
For `Cc1ccc(S(=O)(=O)NCl)cc1`, the inhibition was -0.1%.
`Clc1ccc2c(NCCNc3ccnc4cc(Cl)ccc34)ccnc2c1` gave an inhibition of 5.03%.
`O=C(CCc1ccc(O)cc1)c1c(O)cc(O)cc1O[C@@H]1O[C@H](CO)[C@@H](O)[C@H](O)[C@H]1O` gave an inhibition of -1.4%.
With `CCCCOc1c(C(=O)c2c(F)cc(C)cc2F)c[nH]c2nncc1-2` the inhibition was -5.53%.
`CC(C)(C)C(=O)Oc1ccc(S(=O)(=O)Nc2ccccc2C(=O)NCC(=O)O)cc1` has an inhibition of -1.34%.
`c1ccc(-c2oc3ncnc(NC[C@@H]4CCCO4)c3c2-c2ccccc2)cc1` gave an inhibition of -0.08%.

Block 3
Target: Sal-like protein 4, full length isoform B (SALL4, Homo sapiens, UniProt Q9UJQ4-2, residues 1-616)
Method: universal PBM
Form: double-stranded DNA, one strand shown
Medium: in vitro
Tested at: not given
Setting: 8-mer, flanks averaged, mean of replicates
Reading: higher = stronger binding
Target sequence (chain): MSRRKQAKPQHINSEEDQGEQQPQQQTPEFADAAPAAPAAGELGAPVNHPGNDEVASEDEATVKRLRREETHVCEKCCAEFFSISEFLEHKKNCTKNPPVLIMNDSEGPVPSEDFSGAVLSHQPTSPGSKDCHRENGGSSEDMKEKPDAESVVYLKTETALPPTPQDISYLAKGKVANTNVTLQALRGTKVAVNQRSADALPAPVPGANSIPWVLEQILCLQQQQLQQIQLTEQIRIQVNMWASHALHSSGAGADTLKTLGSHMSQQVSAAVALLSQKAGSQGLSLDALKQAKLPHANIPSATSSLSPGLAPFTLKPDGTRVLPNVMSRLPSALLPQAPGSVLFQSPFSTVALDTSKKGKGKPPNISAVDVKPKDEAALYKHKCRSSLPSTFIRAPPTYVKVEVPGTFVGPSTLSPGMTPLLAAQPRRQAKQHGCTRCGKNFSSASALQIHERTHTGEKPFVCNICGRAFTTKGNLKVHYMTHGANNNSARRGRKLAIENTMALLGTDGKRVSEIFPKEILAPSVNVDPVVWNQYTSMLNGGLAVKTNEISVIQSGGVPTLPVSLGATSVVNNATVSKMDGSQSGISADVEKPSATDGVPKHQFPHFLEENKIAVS
With `TCCCACCA` the E-score was -0.213.
For `CTCTTAGC`, the E-score was -0.163.
With `AGTGCATG` the E-score was 0.0401.
`CACAGGTA` has an E-score of 0.091.
`ATCAGGGG` has an E-score of -0.127.
The E-score of `AGTCCCTG` is reported as -0.24.
`TAAATGCA` gave an E-score of 0.284.
With `AGCCCTTC` the E-score was -0.169.

Block 4
Target: Protein C-ets-1 (ETS1, Homo sapiens, UniProt P14921, residues 1-441, full length assumed)
Method: protein-binding microarray
Form: double-stranded DNA, one strand shown
Medium: in vitro
Tested at: not given
Setting: k-mer, scored over probes, only values ≥0.25
Reading: higher = stronger binding
Residues (chain): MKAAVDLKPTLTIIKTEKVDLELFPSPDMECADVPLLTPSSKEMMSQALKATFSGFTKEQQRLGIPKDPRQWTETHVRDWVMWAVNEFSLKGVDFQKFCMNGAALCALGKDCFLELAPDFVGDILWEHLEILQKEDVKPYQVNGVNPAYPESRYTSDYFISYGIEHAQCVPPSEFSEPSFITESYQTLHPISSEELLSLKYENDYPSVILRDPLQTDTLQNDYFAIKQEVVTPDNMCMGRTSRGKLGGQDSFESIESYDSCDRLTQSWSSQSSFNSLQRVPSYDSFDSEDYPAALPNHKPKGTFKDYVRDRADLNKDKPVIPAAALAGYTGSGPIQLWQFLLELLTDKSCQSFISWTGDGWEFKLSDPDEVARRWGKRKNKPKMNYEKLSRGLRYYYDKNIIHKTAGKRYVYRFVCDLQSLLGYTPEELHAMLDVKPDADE
For `GGATGCCA`, the E-score was 0.289.
`TCCTGCCA` has an E-score of 0.332.
`GGCGGATA` has an E-score of 0.429.
With `ACCGGAAT` the E-score was 0.443.

Block 5
Cell line: HEK-293T/ACE2
Read-out: pseudovirus infection
Organism: VSV pseudotyped with SARS-CoV-2 spike
Tested at: concentration not given
Reference: vehicle-treated
`CNC(=O)c1cc(Oc2ccc(NC(=O)Nc3ccc(Cl)c(C(F)(F)F)c3)c(F)c2)ccn1` gave a GFP-positive cells of 89.7%.
`Cc1nc2c([nH]1)-c1ccccc1N(C(=O)c1ccc(NC(=O)c3ccccc3-c3ccccc3)cc1)CC2.Cl` has a GFP-positive cells of 65.9%.
`COCCc1ccc(OCC(O)CNC(C)C)cc1.COCCc1ccc(OCC(O)CNC(C)C)cc1.O=C(O)CCC(=O)O` (stereo not shown) gave a GFP-positive cells of 97%.
For `Cc1cc(Nc2ncc(Cl)c(Nc3ccccc3S(=O)(=O)C(C)C)n2)c(OC(C)C)cc1C1CCNCC1`, the GFP-positive cells was 70.1%.

Block 6
Target: Replicase polyprotein 1ab, main protease (rep, Severe acute respiratory syndrome coronavirus 2, UniProt P0DTD1)
Read-out: enzyme activity
Action: inhibitor
Tested at: 20 µM
Setting: hit confirmation, no DTT
`Oc1ccc(C2CNCCc3c2cc(O)c(O)c3Cl)cc1` (stereo not shown) has an inhibition of 99%.
`CCCC[C@H](NC(=O)[C@@H]1[C@@H]2[C@H](CN1C(=O)[C@@H](NC(=O)NC1(CS(=O)(=O)C(C)(C)C)CCCCC1)C(C)(C)C)C2(C)C)C(=O)C(=O)NC1CC1` has an inhibition of 55.3%.
`COc1ccc2[n-]c([S@@+]([O-])Cc3ncc(C)c(OC)c3C)nc2c1.COc1ccc2[n-]c([S@@+]([O-])Cc3ncc(C)c(OC)c3C)nc2c1.O.O.O.[Mg+2]` has an inhibition of 99.7%.

Repeated from above (block 5):
`CNC(=O)c1cc(Oc2ccc(NC(=O)Nc3ccc(Cl)c(C(F)(F)F)c3)c(F)c2)ccn1` gave a GFP-positive cells of 89.7%.
`COCCc1ccc(OCC(O)CNC(C)C)cc1.COCCc1ccc(OCC(O)CNC(C)C)cc1.O=C(O)CCC(=O)O` (stereo not shown) gave a GFP-positive cells of 97%.
`Cc1nc2c([nH]1)-c1ccccc1N(C(=O)c1ccc(NC(=O)c3ccccc3-c3ccccc3)cc1)CC2.Cl` has a GFP-positive cells of 65.9%.
For `Cc1cc(Nc2ncc(Cl)c(Nc3ccccc3S(=O)(=O)C(C)C)n2)c(OC(C)C)cc1C1CCNCC1`, the GFP-positive cells was 70.1%.
